Results from different studies.
Compare with care: the assays were run in different laboratories. “And” joins repeats or separate records; there may be more than shown. Numbers after ± are the reported error. Values after ≈ are worked out from the molar mass of the structure shown.

| SMILES | tested on | assay | test system | setting | scale | measurement | result |
| --- | --- | --- | --- | --- | --- | --- | --- |
| CC(C)C[C@H](NC(=O)[C@H](CCCN)NC(=O)CNC(=O)[C@@H](NC(=O)[C@H](C)NC(=O)[C@@H]1CSCSC[C@H](NC(=O)CC[C@H](N)C(=O)O)C(=O)N[C@@H](CC(N)=O)C(=O)N[C@@H]([C@@H](C)O)C(=O)N[C@@H](C)C(=O)N[C@@H]([C@@H](C)O)C(=O)N1)[C@@H](C)O)C(=O)N[C@@H](C)C(=O)N[C@@H](CCC(=O)O)C(=O)N[C@@](C)(Cc1ccccc1)C(=O)N[C@@H](CC(C)C)C(=O)N[C@H](C(=O)N[C@@H](CCCNC(=N)N)C(=O)N[C@@H](CO)C(=O)N[C@@H](CO)C(=O)N[C@@H](CC(N)=O)C(=O)N(C)[C@@H](CC(N)=O)C(=O)N[C@@H](Cc1ccccc1)C(=O)NCC(=O)N1CCC[C@H]1C(=O)N[C@@H](CCCCNC(=O)CC[C@H](NC(=O)CC[C@H](NC(=O)CCCCCCCCCCCCCCCCCCC(=O)O)C(=O)O)C(=O)O)C(=O)N[C@@H](CC(C)C)C(=O)N1CCC[C@H]1C(=O)N1CCC[C@H]1C(=O)N[C@H](C(=O)N[C@@H](CCC(=O)O)C(=O)N[C@H](C(=O)NCC(=O)N[C@@H](CO)C(=O)N[C@@H](CC(N)=O)C(=O)N[C@H](C(=O)N[C@@H](Cc1ccc(O)cc1)C(N)=O)[C@@H](C)O)C(C)C)[C@@H](C)O)C(C)C |  |  | cynomolgus monkey, plasma | subcutaneous, 20 nmol/kg, single dose |  | Cmax | 0.135 µM |
| COc1ccc2c(c1)C(C)(C)C(/C=C/C1=C(Oc3ccc(C(=O)NCCCCOc4cc(CN(Cc5ccccn5)Cc5ccccn5)cc(CN(Cc5ccccn5)Cc5ccccn5)c4)cc3)C(=C/C=C3/N(CCCCS(=O)(=O)[O-])c4ccc(OC)cc4C3(C)C)CCC1)=[N+]2CCCCS(=O)(=O)[O-].O=[N+]([O-])[O-].O=[N+]([O-])[O-].[99Tc+].[C-]#[O+].[C-]#[O+].[C-]#[O+].[Zn+2] |  |  | BALB/c mouse, Staphylococcus aureus myositis, kidneys | 12 h |  | tissue uptake | 2.17 %ID/g and 3.09 %ID/g and 3.59 %ID/g and 3.08 %ID/g |
| C=CS(=O)(=O)Oc1ccc(OC)c(-c2c[nH]c3ncc(-c4cncc(C(=O)N(C)C)c4)cc23)c1 |  | HPLC |  | 50 µM, 37 °C, no lysine, followed to 24 h |  | hydrolytic half-life | > 24 h |
| CCN(CC)c1ccc2c(c1)O[B-]1(c3ccccc3OC)OC(=O)C(c3ccccc3)=N[N+]1=C2 (stereo not drawn) |  | UV/vis decay | aqueous buffer |  |  | hydrolysis activation energy | 95.9 kJ/mol |
| Cc1ncsc1-c1ccc(C(C)NC(=O)C2CC(O)CN2C(=O)C(NC(=O)CCCCCCCCCCN2CCCC(Nc3ncc(Cl)c(Nc4ccccc4S(=O)(=O)C(C)C)n3)C2)C(C)(C)C)cc1 (stereo not drawn) | 22Rv1 | RNA-seq, item: RNF227 mRNA |  | concentration not given | reference: DMSO | log2 fold change | -1.62 |
| CN1CCC[C@]1(C)/C=C/S(=O)(=O)NC(=O)Nc1c2c(cc3c1CC(O)C3)CCC2 (stereo partly drawn) |  |  | human, plasma | oral, 100 mg twice daily of parent drug, metabolite of dosed drug | reference: day 14 over day 1 | AUC(0-24) accumulation ratio | 1.3 |
| CC[C@H](C)[C@@H]1NC(=O)[C@H](Cc2ccc(O)cc2)NC(=O)CCCSC[C@@H](C(=O)N(CC(=O)N[C@@H](CC(C)C)C(=O)NCC(N)=O)Cc2ccc(F)cc2)NC(=O)[C@H](CC(N)=O)NC(=O)[C@H](CCC(N)=O)NC1=O |  |  | human, urine | intravenous, 20 µg |  | maximum undetected urinary excretion | ≤ 0.1 µg |
| CC(=O)N([O-])CCCCCNC(=O)CCC(=O)N([O-])CCCCCNC(=O)CCC(=O)N([O-])CCCCCN.[89Zr+4] |  |  | 0.9 % NaCl saline | 5 days, pH 4.5, 37 °C |  | intact compound | 98.2 ± 2.1% |
| O=C(Nc1cnccc1-c1ccc([18F])nc1)c1ccnc(NC(=O)C2CC2)c1 |  |  | mice, transgenic, GSK-3β, early-stage, large intestine | intravenous, dose not given, 120 min |  | SUV | 0.83 |
| Cc1cc(-c2ccc(C(=O)[C@@H]3CCCC[C@H]3C(=O)Nc3cnn4c3C(=O)NCC4)cc2)[nH]n1 |  |  | human, faeces | oral, 200 mg, 0-96 h | reference: dose | cumulative radioactivity recovery | 84.3% and 79.8% and 75.4% and 71.4% and 52.5% |
| C=C(NC(=O)c1csc(-c2nc3c(cc2O)-c2nc(cs2)C(=O)NC(C(C)O)C(=O)NC(=C(C)OC)c2nc(cs2)C(=O)NC2c4nc(cs4)C(=O)NC(COC(=O)c4c5c6c(cccc6n4O)COC(=O)C(OC4CC(C)(O)C(N(C)C)C(C)O4)C2OC5)c2nc-3cs2)n1)C(N)=O (stereo not drawn) |  |  | male cynomolgus monkey, plasma | intravenous, 3 mg/kg, single dose, infusion |  | Cmax | 12.4 µg/mL |
| O=C(O)CCCOc1ccc([18F])cc1-c1cc(-c2ccccc2C(F)(F)F)n(-c2ccccc2)n1 |  |  | mouse, small intestine | dose not given, 180 min post-administration |  | peak radioactivity | 5.5 %ID/organ |
| CN1C(=O)[C@@H](Cc2ccc(O)c(I)c2)NC(=O)CNC(=O)[C@H](Cc2ccc3ccccc3c2)NC(=O)[C@H](CCCNC(=N)N)NC(=O)[C@H]1CCCNC(=O)c1ccc(CNC(=O)CN2CCN(CC(=O)O)CCN(CC(=O)O)CCN(CC(=O)O)CC2)cc1 [lutetium-177 labelled] |  | extrapolation method 2, OLINDA/EXM, item: 177Lu radioactivity | human, extrapolated from mice, stomach wall |  |  | absorbed dose coefficient | 0.0049 mGy/MBq |
| COc1ccc2c(c1)CCn1c[n+]3c(c1-2)-c1ccc(OC)cc1CC3 |  |  | female NSG mice, blood | 6 mg/kg, day 7, 5 days per week |  | mean corpuscular volume | 48.05 ± 0.2 fL |
| CN(C)C(=O)c1ccnc(N2Cc3cn(Cc4cc(F)cc(F)c4)nc3C2)n1 |  | metabolic stability | human, liver microsomes |  |  | half-life | > 16.7 h |
| COC1CN([C@H]2CC[C@H]([C@@]3(C)Oc4c(Cl)cc(C(=O)NCc5c(SC)cc(C)[nH]c5=O)c(C)c4O3)CC2)C1 |  | RNA-seq, item: DAAM2 | human, whole blood | dose not given, 24 h | reference: pretreatment baseline | log2 fold change | 5.55 |
| C[N+](C)(CCOCCOCCOCCNC(=S)Nc1ccc(C[C@H]2CN(CC(=O)[O-])CCN(CC(=O)[O-])CCN2CC(=O)[O-])cc1)C[c-]1cccc1.[64Cu+2].[Fe+2].c1cc[cH-]c1 |  | OLINDA, extrapolated from mouse biodistribution, item: urinary bladder wall | adult male human phantom |  |  | absorbed dose | 0.47 µSv/MBq |
| CC(C)OCCOCc1ccc(OCC(O)CN(N=O)C(C)C)cc1 (stereo not drawn) |  | mutation spectrum, duplex sequencing | NMRI mouse, liver | concentration not given |  | T>A mutation fraction | increased |
| CN1CCC[C@]1(C)/C=C/S(=O)(=O)NC(=O)Nc1c2c(cc3c1CCC3)CCC2 |  | item: transaminases increased, probably related | human | oral, 50 mg twice daily, 14 days, multiple ascending dose |  | subjects with adverse event | 0% |
| Cc1nn(-c2nc3c(F)cc(F)cc3s2)c(O)c1C(c1ccc(C(F)(F)F)cc1)c1c(C)nn(-c2nc3c(F)cc(F)cc3s2)c1O |  |  | ICR mouse | oral, 50 mg/kg, 8.00 h |  | plasma concentration | 10.7 µg/mL and 11.5 µg/mL and 12.3 µg/mL |
| O=C(Nc1cnccc1-c1ccc([18F])cc1)c1ccnc(NC(=O)C2CC2)c1 |  |  | FVB/NJ mice (both sexes), pancreas | intravenous, dose not given, 120 min, added: tariquidar 15 mg/kg i.v. pre-dose |  | SUV | 0.49 |
| C=CC(=O)Nc1cccc(Cn2ncc3cnc(Nc4cnn(CCOC)c4)nc32)c1 | human SgK110 | KINOMEscan |  | 100 nM | reference: control | binding | 21% |
| C=CC(=O)Nc1cc(Nc2nccc(-c3c[nH]c4ccccc34)n2)c(OC)cc1N(C)CCN(C)C |  | storage stability | human plasma | 24 h, on ice, high QC level |  | recovery | 82.3% |
| Cc1nc(N)nc2c1C(=O)N[C@@H](c1ccc(F)cc1-c1cccc(O[11CH3])n1)C2 |  | ex vivo biodistribution | mice, U87 subcutaneous xenograft, muscle | 60 min post-injection, baseline, vehicle pre-treatment |  | SUV | 0.5 ± 0.01 |
| COc1ccc(Nc2nc(Nc3ccc(OCCOCCOCC[18F])cc3)ncc2Br)cc1 |  |  | ICR mice, S180 tumour | intravenous, 370 kBq, 15 min | reference: tumour over bone | uptake ratio | 1.09 |
| C/C(N)=N/C(=N\S(=O)(=O)c1ccc(C(F)(F)F)cc1)N1C[C@H](c2ccccc2)C(c2ccc(Cl)cc2)=N1 |  |  | male C57BL/6 mouse, brain | intravenous, 10 mg/kg |  | Cmax | 0.0836 µg/mL |
| CN1CCC[C@]1(C)/C=C/S(=O)(=O)NC(=O)Nc1c2c(cc3c1C(O)CC3)CCC2 (stereo partly drawn) |  |  | human, plasma | oral, 50 mg twice daily of parent drug, metabolite of dosed drug | reference: day 14 over day 1 | AUC(0-24) accumulation ratio | 1.6 |
| O=S1(=O)CC2CCCCC2CS1 (stereo not drawn) |  | phase solubility, NMR | water | 25 °C, added: hydroxypropyl-β-cyclodextrin 209 mM |  | solubility | 25.3 mM (≈ 5220 µg/mL) |
| CCC(C(=O)Nc1ccc(C(N)=O)c(F)c1)n1cc(OC)c(-c2cc(Cl)ccc2-n2cc(C(F)(F)F)nn2)cc1=O (stereo not drawn) |  |  | healthy male humans | 50 mg, IR formulation, fasted |  | treatment-emergent adverse events | 6.7% |
| COc1ccc2c(c1)O[B-]1(c3ccccc3)OC(=O)C(c3ccccc3)=N[N+]1=C2C (stereo not drawn) |  | UV/vis decay | aqueous buffer |  |  | hydrolysis activation energy | 89.9 kJ/mol |

Repeated from above:
| SMILES | tested on | assay | test system | setting | scale | measurement | result |
| --- | --- | --- | --- | --- | --- | --- | --- |
| CC(C)OCCOCc1ccc(OCC(O)CN(N=O)C(C)C)cc1 (stereo not drawn) |  | mutation spectrum, duplex sequencing | NMRI mouse, liver | concentration not given |  | T>A mutation fraction | increased |
| C=CC(=O)Nc1cc(Nc2nccc(-c3c[nH]c4ccccc34)n2)c(OC)cc1N(C)CCN(C)C |  | storage stability | human plasma | 24 h, on ice, high QC level |  | recovery | 82.3% |
| CC(=O)N([O-])CCCCCNC(=O)CCC(=O)N([O-])CCCCCNC(=O)CCC(=O)N([O-])CCCCCN.[89Zr+4] |  |  | 0.9 % NaCl saline | 5 days, pH 4.5, 37 °C |  | intact compound | 98.2 ± 2.1% |
| COc1ccc2c(c1)C(C)(C)C(/C=C/C1=C(Oc3ccc(C(=O)NCCCCOc4cc(CN(Cc5ccccn5)Cc5ccccn5)cc(CN(Cc5ccccn5)Cc5ccccn5)c4)cc3)C(=C/C=C3/N(CCCCS(=O)(=O)[O-])c4ccc(OC)cc4C3(C)C)CCC1)=[N+]2CCCCS(=O)(=O)[O-].O=[N+]([O-])[O-].O=[N+]([O-])[O-].[99Tc+].[C-]#[O+].[C-]#[O+].[C-]#[O+].[Zn+2] |  |  | BALB/c mouse, Staphylococcus aureus myositis, kidneys | 12 h |  | tissue uptake | 2.17 %ID/g and 3.09 %ID/g and 3.59 %ID/g and 3.08 %ID/g |
| O=C(O)CCCOc1ccc([18F])cc1-c1cc(-c2ccccc2C(F)(F)F)n(-c2ccccc2)n1 |  |  | mouse, small intestine | dose not given, 180 min post-administration |  | peak radioactivity | 5.5 %ID/organ |
